Earlier results, collected from citations in different studies.
Each numbered part shows a few of the values that one paper quotes.
Chain of UniProt Q02763 (whole entry, looked up): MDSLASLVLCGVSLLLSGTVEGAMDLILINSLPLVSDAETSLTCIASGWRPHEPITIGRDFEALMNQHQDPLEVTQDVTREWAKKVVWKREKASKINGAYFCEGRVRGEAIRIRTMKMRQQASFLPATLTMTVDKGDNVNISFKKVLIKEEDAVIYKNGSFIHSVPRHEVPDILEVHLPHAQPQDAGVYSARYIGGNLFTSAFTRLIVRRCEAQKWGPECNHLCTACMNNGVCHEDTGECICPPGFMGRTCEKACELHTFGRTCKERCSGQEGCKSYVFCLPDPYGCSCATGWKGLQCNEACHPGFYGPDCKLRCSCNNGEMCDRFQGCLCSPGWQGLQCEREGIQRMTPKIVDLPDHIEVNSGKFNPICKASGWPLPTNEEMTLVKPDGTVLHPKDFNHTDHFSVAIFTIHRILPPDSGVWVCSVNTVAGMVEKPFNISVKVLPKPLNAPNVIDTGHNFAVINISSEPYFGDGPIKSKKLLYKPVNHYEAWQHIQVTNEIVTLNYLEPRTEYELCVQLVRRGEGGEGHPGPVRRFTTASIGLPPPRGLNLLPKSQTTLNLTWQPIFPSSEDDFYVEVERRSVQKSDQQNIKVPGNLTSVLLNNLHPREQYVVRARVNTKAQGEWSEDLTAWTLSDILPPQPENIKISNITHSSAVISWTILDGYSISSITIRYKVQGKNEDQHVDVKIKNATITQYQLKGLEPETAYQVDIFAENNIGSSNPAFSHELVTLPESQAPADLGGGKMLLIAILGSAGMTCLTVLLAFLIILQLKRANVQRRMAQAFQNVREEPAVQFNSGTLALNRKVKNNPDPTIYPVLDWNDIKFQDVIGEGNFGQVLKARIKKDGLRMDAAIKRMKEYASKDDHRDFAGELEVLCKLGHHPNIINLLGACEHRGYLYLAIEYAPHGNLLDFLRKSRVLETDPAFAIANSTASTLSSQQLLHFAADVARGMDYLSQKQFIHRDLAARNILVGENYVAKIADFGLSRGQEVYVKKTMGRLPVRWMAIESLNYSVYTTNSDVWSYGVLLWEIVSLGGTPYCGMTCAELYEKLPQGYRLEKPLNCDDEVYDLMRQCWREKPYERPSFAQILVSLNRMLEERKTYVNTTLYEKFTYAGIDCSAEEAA

Study 1 — organism: Toxoplasma gondii; effect on: parasite growth; concentration: concentration not given; setting: drug repurposing screen
Compound	activity class
CC12CC3CC(C)(C1)CC(N)(C3)C2	inactive
CN(C)CCCC1(c2ccc(F)cc2)OCc2cc(C#N)ccc21 (centres unmarked)	inactive
COC(=O)C1=C(C)NC(C)=C(C(=O)OC)C1c1ccccc1[N+](=O)[O-]	inactive
CN1CCN(C2=Nc3cc(Cl)ccc3Nc3ccccc32)CC1	inactive
Cc1c(C(=O)NN2CCCCC2)nn(-c2ccc(Cl)cc2Cl)c1-c1ccc(I)cc1	inactive
CN(C)CCCN1c2ccccc2CCc2ccc(Cl)cc21	inactive
Oc1ccc(/C=C/c2cc(O)cc(O)c2)cc1	inactive
CN(C)CCC=C1c2ccccc2COc2ccccc21	inactive
COC(=O)C[C@](O)(CCCC(C)(C)O)C(=O)O[C@@H]1C(OC)=C[C@]23CCCN2CCc2cc4c(cc2[C@H]13)OCO4	inactive
COc1ccc([C@@H]2Sc3ccccc3N(CCN(C)C)C(=O)[C@@H]2OC(C)=O)cc1	inactive

Study 2 — SMILES: CN(C)CC/C=C1/c2ccccc2Sc2ccc(Cl)cc21; cell line: MCF7; method: microarray; concentration: concentration not given
measured	relative to	fold change
ISG20 mRNA (probe 33304_at)	vehicle (DMSO)	1.74
MAFF mRNA (probe 36711_at)	vehicle (DMSO)	7.83
SYNGR3 mRNA	DMSO	1.4

Study 3
Structure (SMILES): O=C(O)c1cc(-c2ccc(C3CCNCC3)cc2)c2ccc(-c3ccc(C(F)(F)F)cc3)cc2c1
target	effect on	method	concentration	IC50 [nM]
SLC6A3	–	radioligand binding	10 µM	2310
INSR	enzyme activity	Eurofins-Panlabs panel	concentration not given	4310
CYSLTR1	–	radioligand binding	1 µM	560

Further values, each from its own experiment
Structure (SMILES)	target or system	test	system	setting	endpoint	value
Nc1ccn([C@@H]2O[C@H](CO)[C@@H](O)C2(F)F)c(=O)n1	–	–	pancreatic cancer patients	dose not given	dose reductions due to Neutropenia	16%
Cc1cc(C)c(-n2ccn3nc(-c4cccnc4)cc23)cc1NC(=O)c1cc(C#N)cc(S(F)(F)(F)(F)F)c1	Angiopoietin-1 receptor (TEK, Homo sapiens, UniProt Q02763)	NanoBRET	cells	–	IC50	1.7 nM
CN[C@@H](C)C(=O)N[C@H]1CN(S(=O)(=O)c2cccc(S(=O)(=O)N3CC[C@H]4CC[C@@H](C(=O)NC(c5ccccc5)c5ccccc5)N4C(=O)[C@@H](NC(=O)[C@H](C)NC)C3)c2)CC[C@H]2CC[C@@H](C(=O)NC(c3ccccc3)c3ccccc3)N2C1=O	–	–	5 % glucose injection	–	stability at room temperature	4 h
C=CC(=O)N1CCN(c2nc(=O)n(-c3c(C)ccnc3C(C)C)c3nc(-c4c(O)cccc4F)c(F)cc23)[C@@H](C)C1	NCI-H358	measured: phospho-ERK	–	2 h	IC50	9 nM

For quick reference, copied from above (study 3):
target	effect on	method	concentration	IC50 [nM]
SLC6A3	–	radioligand binding	10 µM	2310
INSR	enzyme activity	Eurofins-Panlabs panel	concentration not given	4310
CYSLTR1	–	radioligand binding	1 µM	560
